Measurements from different studies.
Compare with care: the assays were run in different laboratories. Numbers after ± are the reported error.

SMILES	test	test system	setting	how to read	endpoint	result
CCCC[C@H](NC(C)=O)C(=O)N[C@H]1CC(=O)NCCCC[C@@H](C(=O)N[C@@H](C(=O)N2CCC[C@@H]2C(N)=O)C(C)C)NC(=O)[C@H](Cc2c[nH]c3ccccc23)NC(=O)[C@H](CCCN=C(N)N)NC(=O)[C@@H](Cc2ccc3ccccc3c2)NC(=O)[C@@H]2CCCN2C1=O		Beagle dog, both sexes, plasma	subcutaneous, once daily, 2.25 mg/kg, day 5		half-life	150 ± 6 min
CCCC[C@H](NC(=O)CNC(=O)CNC(=O)CN1CCN(CC(=O)O)CCN(CC(=O)O)CC1)C(=O)N[C@H]1CC(=O)NCCCC[C@@H](C(N)=O)NC(=O)[C@H](Cc2c[nH]c3ccccc23)NC(=O)[C@H](CCCNC(=N)N)NC(=O)[C@@H](Cc2ccccc2)NC(=O)[C@H](Cc2c[nH]cn2)NC1=O [copper-64 labelled]		female C57 mouse, B16/F1 melanoma	intravenous, 0.037 MBq, 4 h	reference: tumour over heart	uptake ratio	31
COC(=O)C(c1ccccc1Cl)N1CCC(SCC(=O)c2cccc(OC)c2)C(=CC(=O)O)C1 (mixture of isomers)	HPLC-MS/MS	feline EDTA plasma	100 ng/mL, 6 h, 4 °C, storage stability		deviation from nominal	-15%
O=C(CCc1ccc(CNC(C(=O)OC2CCCC2)C2CCCCC2)cn1)NO (centres unmarked)		human, plasma	oral, 50 mg, single dose, patients		Cmax	256 ng/mL
CC(C)(O)c1ncc([S@](N)(=O)=NC(=O)Nc2c3c(cc4c2CCC4)CCC3)s1		human, plasma	oral, 100 mg, single dose, fasted, healthy volunteers		Cmax	4670 ng/mL
COCC1CN(C2CCN(c3cc(OC)c(Nc4ncc(Br)c(Nc5ccc6c(c5P(C)(C)=O)OCCO6)n4)cc3C)CC2)C1		human patients	oral, 10 to 240 mg once daily		treatment-related ALT increased, all grades	22.2%
CC(C)(c1cc(Br)c(O)c(Br)c1)c1cc(Br)c(O)c(Br)c1		whole cow milk	mean of all doses	reference: total added	distribution into milk fat	46%
CC(C)(C)[C@H](NC(=O)[C@H](CCONC(=N)N)NC(=O)Cc1ccc(CNC(=N)N)cc1)C(=O)N[C@@H](CCONC(=N)N)C(=O)NCc1ccc(C(=N)N)cc1		human liver microsomes 0.7 mg/mL	50 µM, 10 min, pH 7.4		depletion	12.1%
CN1/C(=C/C=C/c2cc(-c3ccccc3)cc(-c3ccccc3)[o+]2)C(C)(C)c2ccccc21		male CD1 mice, plasma	intravenous, 1 mg/kg		terminal half-life	13.6 min
[O-]c1cccc(-c2cccc([O-])n2)n1.[Ru+2].c1ccc(-c2ccccn2)nc1.c1ccc(-c2ccccn2)nc1	shake flask	octanol/buffer			logP of basic form	1.6
CC1(c2ccc([C@H]3C[C@@]4(C)[C@@H](CC[C@@]4(O)C(F)(F)C(F)(F)F)[C@@H]4CCC5=CC(=O)CCC5=C43)cc2)COC1		human liver microsomes	100 % absorption assumed		maximal oral bioavailability	8%
CCCC[C@@H]1NC(=O)[C@@H](NC(=O)[C@H](CCC(=O)O)NC(=O)CNC(=O)CN2CCN(CC(=O)O)CCN(CC(=O)O)CCN(CC(=O)O)CC2)CCCCNC(=O)C[C@@H](C(N)=O)NC(=O)[C@H](C(C)C)NC(=O)[C@@H]2CCCN2C(=O)[C@H](CCCNC(=N)N)NC(=O)CNC(=O)[C@H](Cc2c[nH]c3ccccc23)NC(=O)[C@H](CCCNC(=N)N)NC(=O)[C@@H](Cc2ccccc2)NC(=O)[C@H](Cc2c[nH]cn2)NC(=O)[C@H](CCC(=O)O)NC1=O [gallium-67 labelled]		C57 mice, B16/F1 flank melanoma, skin	intravenous, 0.037 MBq/mouse, 2 h		tissue uptake	0.25 ± 0.03 %ID/g
COc1cc(NC(C)=O)c2c(c1O)-c1c(OC)c(OC)cc3c1C(C2)N(C)CC3 (centres unmarked)		rat heart homogenate	0.5 µg/mL, time not given, three freeze-thaw cycles		remaining compound	104 ± 2.9%
CC(=O)N[C@H](C)c1cc(Cl)ccc1Cn1c(=S)[nH]c(=O)c2[nH]ccc21		Sprague-Dawley rat, male, plasma	oral, 125 mg/kg/day	reference: rat over human 5 mg	exposure ratio	2.8
COCCN(CC(N)=O)C(=O)CN(CCOC)C(=O)CN(CCOC)C(=O)CN(CCOC)C(=O)CN(CCOC)C(=O)CN(CCOC)C(=O)CN(CCOC)C(=O)CN(CCCCC(N)C(=O)O)C(=O)CN(CCOC)C(=O)CN(CCOC)C(=O)CN(CCOC)C(=O)CN(CCOC)C(=O)CN(CCOC)C(=O)CN(CCOC)C(=O)C(Cc1ccccc1)NC(C)=O (centres unmarked)	potentiometric titration with KOH	100 x 1 mM KCl			pKa of COOH group	3.1
Cc1ccc(OCC(=O)O)cc1		Sprague-Dawley rat, female, plasma	oral gavage, 10 mg/kg of parent drug		t1/2	73.8 min

SMILES	test	test system	setting	how to read	endpoint	result
CC[C@H](C)[C@H](NC(=O)[C@H](N)Cc1ccc(O)cc1)C(=O)N[C@H]1CSSC[C@@H](C(=O)N(C)[C@H](C(N)=O)[C@@H](C)CC)NC(=O)[C@H](CCCNC(=N)N)NC(=O)[C@H](Cc2c[nH]cn2)NC(=O)[C@H](C)NC(=O)CN(C)C(=O)[C@H](Cc2c[nH]c3ccccc23)NC(=O)[C@H](CC(=O)O)NC(=O)[C@H](CCC(N)=O)NC(=O)[C@H](Cc2cn(C)c3ccccc23)NC(=O)[C@H](C(C)C)NC1=O	UPLC-ESI-MS	human plasma	3.58 µg/mL, 24 h, 25 °C, bench-top after SPE		recovery	99.7 ± 0.9%
CCCCC/C=C/C=C/C(=O)NCC(C)C		rat plasma	15 ng/mL, 30 d, -80 °C, long-term storage low QC	reference: nominal concentration	relative error	-6.89%
CC(C)(F)CC(NC(c1ccc(-c2ccc(S(C)(=O)=O)cc2)cc1)C(F)(F)F)C(=O)NCC#N (centres unmarked)	LC-MS UV trace	aqueous buffer	concentration not given, 23 h, pH 8.0, 37 °C, together with: cysteine 10 mM		cysteine adduct formation	98%
CN(C)Cc1ccc([C@H]2C[C@@]3(C)[C@@H](CC[C@@]3(O)C(F)(F)C(F)(F)F)[C@@H]3CCC4=CC(=O)CCC4=C32)cc1		rat liver microsomes	100 % absorption assumed		maximal oral bioavailability	100%
COc1ccc(/C=C/c2ccc(-c3ccc(C)cn3)nc2)cc1	TCSPC	MeCN			fluorescence lifetime	0.6 ns
COC(=O)c1ccc(-c2cn(Cc3cc(Cl)ccc3O[11CH3])nn2)cc1	PET, 1TCM	rhesus macaque, thalamus	dose not given		distribution volume VT	0.587 mL/cm³
CC[C@H](C)[C@@H]1NC(=O)[C@@](C)(NC(=O)[C@H](CCCNC(=N)N)NC(=O)[C@H](CC(C)C)NC(=O)[C@]2(C)CCCC=CCCC[C@](C)(NC(C)=O)C(=O)N[C@@H](CC(C)C)C(=O)N[C@@H](CCC(N)=O)C(=O)N2)CCCC=CCCC[C@@](C)(C(=O)N[C@@H](CC(C)C)C(=O)N[C@@H](Cc2ccc3ccccc3c2)C(=O)NCCC(=O)NCCC(N)=O)NC(=O)[C@H](CCCNC(=N)N)NC(=O)[C@H](CCC(N)=O)NC1=O		BALB/c mice	intraperitoneal, 30 mg/kg		terminal half-life	589 min
CCOc1c(C(C)(C)O)sc2cnc(Nc3ccc(N4CCC(N5CC6(COC6)C5)CC4)cc3OC)nc12		New Zealand rabbit, male, isolated Purkinje fibres	30 µM, 45 min, pacing 3 Hz		action potential amplitude change	-5 ± 1%
CC(C)[C@H](NC(=O)[C@@H]1CCCN1C(=O)[C@H](CCCNC(=N)N)NC(=O)[C@H](CS)NC(=O)[C@H](Cc1c[nH]c2ccccc12)NC(=O)[C@H](CCCNC(=N)N)NC(=O)[C@@H](Cc1ccccc1)NC(=O)[C@H](Cc1c[nH]cn1)NC(=O)[C@H](CCC(=O)O)NC(=O)[C@H](CS)NC(=O)[C@H](CS)NC(=O)CNC(=O)[C@@H]1CC(=O)N[C@@H](CCCNC(=N)N)C(=O)NCC(=O)N[C@@H](CC(=O)O)C(=O)N[C@H](Cc2ccc(O)cc2)C(=O)N1)C(N)=O [technetium-99m labelled]		C57 mice B16/F1 melanoma female, urine	iv, 0.037 MBq, 2 h		excretion	73 ± 9.29%
C=C(c1ncc(C(=O)O)cn1)c1cc2c(cc1C)C(C)(C)CCC2(C)C		Sprague-Dawley rat, male	oral, 100 mg/kg, 3 h, sesame oil vehicle		blood cholesterol	85 ± 12.9 mg/dL
NCCC(=O)N1Cc2ccccc2-c2c(nnn2-c2cn(C3OC(CO)C(O)C3O)c(=O)[nH]c2=O)-c2ccccc21 (mixture of isomers)	frequency-domain fluorometry	methanol			average fluorescence lifetime	2.7 ns
O=C([O-])CN1CCN(CC(=O)[O-])CCN(CC(=O)NCCc2ccc3c(c2)C2C=CCC2C(c2cc4c(cc2Br)OCO4)N3)CCN(CC(=O)[O-])CC1.[111In+3] (centres unmarked)		mouse, Hec50 endometrial tumour, uterus	1 h post injection		tissue uptake	0.73 ± 0.09 %ID/g
c1ccc(CN2CCOCCOCCN(CCCCCCCCCCCCCCN3CCOCCOCCN(CCCCCCCCCCCCCCN4CCOCCOCCN(Cc5ccccc5)CCOCCOCC4)CCOCCOCC3)CCOCCOCC2)cc1	dynamic light scattering	LB Miller medium	7 µM		aggregate size	180 nm
COc1cc2c(cc1OC)CN(CCCCn1ccc3cc(OCC[18F])ccc31)C2		ICR mice, male, small intestine	intravenous, 2 min		uptake	7.47 ± 0.93 %ID/organ
C[C@H]1NSc2nc(=O)c3[nH]ccc3n2Cc2ccc(Cl)cc21		Sprague-Dawley rat, female, plasma	oral, 125 mg/kg/day	reference: rat over human 15 mg	exposure ratio	39
COC1C=COC2(C)Oc3c(C)c(O)c4c(c3C2=O)C2=NC3(CCN(CC(C)C)CC3)NC2=C(NC(=O)C(C)=CC=CC(C)C(O)C(C)C(O)C(C)C(OC(=O)Nc2cscn2)C1C)C4=O (centres unmarked)		CD-1 mouse female, plasma	oral, 10 mg/kg		fAUC/MIC ratio	25
